Results pooled from the literature.
Protocols differ between the studies behind these lines. ± gives the spread as reported. ≈ marks a conversion by molar mass, not a printed value.

| SMILES | test | system | conditions | scale | measurement | result |
| --- | --- | --- | --- | --- | --- | --- |
| C[C@H](CCC(=O)NCC(=O)O)[C@H]1CC[C@H]2[C@@H]3[C@H](O)C[C@@H]4C[C@H](O[C@@H]5O[C@H](C(=O)O)[C@@H](O)[C@H](O)[C@H]5O)CC[C@]4(C)[C@H]3CC[C@]12C | – | human, plasma | endogenous baseline diurnal | baseline: daily mean concentration | relative peak deviation | 87.4 ± 14.4% |
| N#Cc1ccc2c(c1)[C@H]1CCCN(C(=O)c3ccc4[nH]cnc4c3)[C@H]1C2 | – | human, female | 40 mg, end of trial | – | DHEA-S level | 6 µmol/L |
| Cc1ccc([C@@H]2O[C@H](CO)[C@@H](O)[C@H](O)[C@H]2O)cc1Cc1ccc(-c2ccc(F)cc2)s1 | – | Japanese type 2 diabetes patients | 100 mg, day 2, 24 h urine collection | baseline: baseline | urinary calcium excretion change | 18.9 mg |
| C/C(=N\c1ccc(O)cc1)c1cc2ccccc2n1C | – | rat, plasma | three freeze-thaw cycles | – | freeze-thaw stability | stable |
| N#Cc1ccc(C(c2ccc(C#N)cc2)n2cncn2)cc1 | – | human patients, plasma | oral, 12.5 mg daily | – | unbound Cmax at steady state | 1390 ± 120 nM |
| CO[C@@H]1[C@H](OC(=O)N2CC(CCN3CCOCC3)C2)CC[C@]2(CO2)[C@H]1[C@@]1(C)O[C@@H]1CC=C(C)C | – | humans | subcutaneous, 0.2 mg twice weekly for 4 weeks, day 28 | baseline: baseline | D-dimer | -0.03 ± 0.05 mg/dL |
| CNC(=O)c1ccccc1Nc1cc(Nc2ccc(N3CCOCC3)cc2OC)ncc1C(F)(F)F | – | oleic acid | 24 h, 25 °C | – | solubility | 4200 µg/mL (≈ 8.37 mM) |
| O=C(Nc1cnccc1Cl)N1CCN(Cc2ccc3c(c2)OC(F)(F)O3)CC1 | – | young men, plasma | oral, 10 mg once daily, day 10, normalized to 10 mg | – | dose-normalized AUC(0-tau) | 655 ng·h/mL |
| CNCc1ccc(-c2[nH]c3cc(F)cc4c3c2CCNC4=O)cc1 | measured: headache | human patients | oral, 600 mg twice daily, grade 4 | – | patients with adverse event | 0% |
| CCn1cc(C(=O)N2CCOCC2)c(=O)c2cc(NC3Cc4ccccc4C3)cnc21 | – | human, fasted | oral suspension, 50 mg single dose, arithmetic mean | – | AUC(0-last) | 1400 ng·h/mL |
| COCC(=O)N1CCC[C@H](C(=O)NCc2nc(-c3ccccc3)cs2)C1 | – | Sprague-Dawley rat, male, urine | intravenous, 1 mg/kg, 24 h | baseline: dose | urinary excretion | 0.68% |
| CN1CCN(c2cccc3c2CCN(C(=O)/C=C/c2c(-n4cnnn4)ccc(Cl)c2F)[C@@H]3C(=O)Nc2ccc(C(=O)O)cc2)C(=O)C1 | – | healthy human subjects | intravenous infusion, 1 mg/h, 5 days | – | subjects with serious adverse event | 0% |
| CC(C)(C(=O)N1CCOc2c(C#N)cncc2C1)C(F)F | measured: Dizziness | human | oral, 10 mg once daily, 14 days, multiple ascending dose | – | subjects with adverse event | 0% |
| Cc1ccc(N(C)C(=O)/C=C/c2ccco2)cc1 | hot plate test | mice | oral, 30 mg/kg single, 60 min | – | licking latency | 15.5 ± 0.7 s |
| CCC(=O)N(CCC(c1ccc2c(c1)OCO2)c1ccccc1OC)Cc1ccccc1 (stereo not drawn) | – | female athymic nude mouse, blood | i.p., 60 mg/kg twice daily, 14 days, group mean | – | BUN | 24.5 mg/dL |
| COc1cc(Cl)c(C(=O)N[C@@H](CN[C@H]2CC[C@@H](N)CC2)Cc2ccc(C#N)cc2)cc1-c1ccc(CN[C@H](C)c2ccc(C)cc2)o1 | – | rat hepatocytes | 1 µM, 5% FCS | – | blood clearance | 21.7 mL/min/kg |
| COc1ccc2c(c1)CN(C(=O)CCN1CCC(Cc3ccccc3)CC1)CC[S@@+]2[O-] | – | beagle dog, male | intravenous, 8 mg/kg, 14-day toxicity study | – | blood concentration | 7590 ± 1410 ng/mL |
| CNC(=O)c1ccc(-c2cnc3ncc(Cc4ccc5ncccc5c4)n3n2)cc1F | measured: Anemia | cancer patients | oral, 600 mg twice daily, all expansion cohorts, grade 3-4 | – | patients with adverse event | 5% |
| CC(C)Oc1c(NC(=O)c2ccc(NC(=O)[C@H](CC(N)=O)NC(=O)c3cc(F)c(/N=N/c4c(F)cccc4F)c(F)c3)cc2)ccc(C(=O)N/N=C/c2ccc(C(=O)O)s2)c1O | absorbance | DMSO | 50 °C, PSS to ground state relaxation | – | thermal half-life | 30 min |
| CCc1cc(C(=O)NC)c2nccc(N3CCc4c(cc(Cn5ccnc5)cc4-c4cn(C)nc4C(F)(F)F)C3=O)c2c1 | – | Sprague Dawley rat | oral, 100 mg/kg once daily, day 2, 7-day toxicology study | – | body weight | 227 ± 2.6 g |
| C=CC(=O)NC1CCN(c2ncc3ncnc(Nc4ccc(Oc5ccc6c(c5)ncn6C)c(C)c4)c3n2)CC1 | measured: gingival bleeding | human male | oral, dose not given, CTCAE on-treatment AEs | – | adverse events incidence | 0% |
| COc1cccc(OC)c1-c1cc(C(=O)NC2(C(=O)O)C3CC4CC(C3)CC2C4)nn1-c1ccc(C(=O)N(C)CCCN(C)CCCN(C)C(=O)CN2CCN(CC(=O)[O-])CCN(CC(=O)[O-])CCN(CC(=O)[O-])CC2)cc1C(C)C.[177Lu+3] (stereo not drawn) | – | mouse HT-29 xenograft | 24 h, biodistribution | baseline: tumour over spleen | tumour-to-spleen ratio | 74.5 |
| CCCCCCCOc1ccc(CCC(N)(CO)CO)cc1C(F)(F)F.Cl | – | Sprague-Dawley rat, male, heart | oral, 1 mg/kg | – | tlast | 48 h |

| SMILES | test | system | conditions | scale | measurement | result |
| --- | --- | --- | --- | --- | --- | --- |
| Cc1ccc(Sc2ccccc2N2CCNCC2)c(C)c1 | – | healthy adult men | oral, 40 mg single dose, treatment-emergent adverse events | – | eczema incidence | 16.7% |
| CN(C(=O)n1cnc(-c2cccnc2)c1)C1CCCCC1 | – | Wistar rat, cerebellum | oral, 10 mg/kg of BIA 10-2474, 4 h, single dose | – | concentration | 30.8 ± 8.8 ng/g |
| CC(C)(C)c1ccc(O)c(CN(Cc2cc(C(C)(C)C)ccc2O)C2CCC(NC(N)=O)CC2)c1 (stereo not drawn) | – | C57BL/6 mice, male, plasma | intraperitoneal, 25 mg/kg, single dose | – | dose-normalised Cmax | 145 ng/mL per mg/kg |
| CC(C)[C@H](C(=O)Nc1ccc(C(=O)NO)cc1)c1ccccc1 | – | whole blood | 100 ng/mL, 3 h, 4 °C, stability on ice | – | measured concentration | 109 ng/mL |
| Cn1cc(Nc2nccc(-c3ccc4c(c3)CN(C3COC3)CC[C@H]4NC(=O)c3cn(C(C)(C)C)nn3)n2)cn1 | – | human, whole blood | 50 mg twice daily, day 14 | baseline: pre-dose baseline | transitional B cell count change | 26.5% |
| Nc1nnc(-c2cccc(Cl)c2Cl)c(N)n1 | – | human, plasma | outliers excluded | baseline: baseline | QRS change slope | 0.0179 % per µg/mL |
| N=C(N)NCCNC(=O)C1(Nc2ccccc2)CCN(Cc2ccccc2)CC1 | – | male Sprague-Dawley rats, plasma | intravenous, 2.5 mg/kg | – | mean residence time | 0.1 h |
| C[C@@H](Oc1ccc(S(C)(=O)=O)cc1C(=O)N1C[C@@H]2C[C@]2(c2cc(C(F)(F)F)on2)C1)C(F)(F)F | – | human, faeces | oral, 25 mg, mean | baseline: dose | faecal excretion | 0.3% |
| CCO[C@H]1CCN(Cc2c(OC)cc(C)c3[nH]ccc23)[C@H](c2ccc(C(=O)O)cc2)C1 | – | PNH patients, active haemolysis | oral, 50 mg, treatment | – | incidence free thyroxine increase | 0% |
| NS(=O)(=O)c1cc(C(=O)O)c(NCc2ccco2)cc1Cl | measured: thirst | healthy men | oral, 8 days, treatment-emergent, crossover trial | – | subjects with adverse event | 0% |
| O=C(c1cccnc1-c1ccncc1)N1CCC(O)(Cc2ccccc2)CC1 | – | healthy Japanese adults, plasma | oral, 100 mg twice daily, day 7 | – | terminal elimination rate constant | 6.39e-05 s⁻¹ |
| C[C@H]1CN(C(=O)CC#N)[C@]12CCN(c1ncnc3[nH]ccc13)C2 | IL-4 secretion, inhibitor | human whole blood | – | – | IC50 corrected by blood/plasma ratio | 0.024 µg/mL |
| NCCONC(=O)[C@@H]1CC[C@@H]2CN1C(=O)N2OS(=O)(=O)O | measured: leading to permanent discontinuation | healthy Chinese men | intravenous, 1 g, treatment-related | – | adverse event incidence | 0% |
| CNC(=O)c1ccc(-c2cnc3ncc(Cc4ccc5ncccc5c4)n3n2)cc1F | – | healthy human subjects | oral, dose not given, all grades, all causality, with: rifampicin | baseline: subjects | diarrhoea incidence | 11.5% |
| NC1(C(=O)N[C@@H](CCO)c2ccc(Cl)cc2)CCN(c2nc[nH]c3nccc2-3)CC1 | – | metastatic CRPC patients | 480 mg b.i.d., any grade, treatment-related, with: enzalutamide 160 mg daily | – | incidence of Fatigue | 20% |
| Cc1c(-c2ccc(N3CCc4cccc(C(=O)Nc5nc6ccccc6s5)c4C3)nc2C(=O)O)cnn1CC12CC3(C)CC(C)(C1)CC(OCCNCC[C@H](O)CO)(C3)C2 | – | anaesthetized male beagle dog | iv infusion, 0.1 mg/kg/min, 30 min | – | plasma concentration | 7 ng/mL |
| CN(C(=O)C(C)(C)c1cc(C(F)(F)F)cc(C(F)(F)F)c1)c1cnc(N2C[C@H]3COCCN3C[C@H]2CO)cc1-c1ccc(F)cc1[14CH3] | – | healthy men, urine and feces | oral, 120 mg, from 288 h, per 24 h collection | baseline: dose | radioactivity recovered per interval | 0.2 to 0.58% |
| CO[C@H]1C[C@@H]2CC[C@@H](C)[C@@](O)(O2)C(=O)C(=O)N2CCCC[C@H]2C(=O)O[C@H]([C@H](C)C[C@@H]2CC[C@@H](O)[C@H](OC)C2)CC(=O)[C@H](C)/C=C(\C)[C@@H](O)[C@@H](OC)C(=O)[C@H](C)C[C@H](C)/C=C/C=C/C=C/1C | – | healthy adult horses | intravenous, 0.06 mg/kg, 72 h | – | rectal temperature | 37.2 ± 0.3 °C |
| Cc1ccc(C)c(OCCCC(C)(C)C(=O)O)c1 | measured: Tmax | human subjects, plasma | oral, dose not given, with: lopinavir-ritonavir | baseline: with over without lopinavir-ritonavir | geometric mean ratio | 0.95 |
| C[C@H](CCC(=O)O)[C@H]1CC[C@H]2[C@@H]3CC[C@@H]4C[C@H](OS(=O)(=O)O)CC[C@]4(C)[C@H]3CC[C@]12C | – | human, plasma | endogenous baseline diurnal | baseline: daily mean concentration | relative peak deviation | 6.69 ± 1.87% |
| Cc1ccc(O)c(-n2nc3ccccc3n2)c1 | – | human aged 11-16 years | concentration not given, spray sunscreen, 95th percentile | – | daily dermal exposure dose | 2890 ng/kg/day |
| COc1ncc(-c2nc3c(n2C(C)C)[C@H](c2ccc(Cl)cc2)N(c2cc(Cl)cn(C)c2=O)C3=O)c(OC)n1 | – | human patients, plasma | oral, 150 mg | – | geometric mean AUC(0-last) | 8210 ng·h/mL |

A few entries again:
| SMILES | test | system | conditions | scale | measurement | result |
| --- | --- | --- | --- | --- | --- | --- |
| CN(C(=O)n1cnc(-c2cccnc2)c1)C1CCCCC1 | – | Wistar rat, cerebellum | oral, 10 mg/kg of BIA 10-2474, 4 h, single dose | – | concentration | 30.8 ± 8.8 ng/g |
| CC(C)(C)c1ccc(O)c(CN(Cc2cc(C(C)(C)C)ccc2O)C2CCC(NC(N)=O)CC2)c1 (stereo not drawn) | – | C57BL/6 mice, male, plasma | intraperitoneal, 25 mg/kg, single dose | – | dose-normalised Cmax | 145 ng/mL per mg/kg |
| CC(C)[C@H](C(=O)Nc1ccc(C(=O)NO)cc1)c1ccccc1 | – | whole blood | 100 ng/mL, 3 h, 4 °C, stability on ice | – | measured concentration | 109 ng/mL |
| Cn1cc(Nc2nccc(-c3ccc4c(c3)CN(C3COC3)CC[C@H]4NC(=O)c3cn(C(C)(C)C)nn3)n2)cn1 | – | human, whole blood | 50 mg twice daily, day 14 | baseline: pre-dose baseline | transitional B cell count change | 26.5% |
| Nc1nnc(-c2cccc(Cl)c2Cl)c(N)n1 | – | human, plasma | outliers excluded | baseline: baseline | QRS change slope | 0.0179 % per µg/mL |
| N=C(N)NCCNC(=O)C1(Nc2ccccc2)CCN(Cc2ccccc2)CC1 | – | male Sprague-Dawley rats, plasma | intravenous, 2.5 mg/kg | – | mean residence time | 0.1 h |
